# Published values gathered from unrelated publications.
# Parts stem from different laboratories: compare values within a part only. Positions count from the first letter of the parent shown.

# Set 1
# Target: Interferon regulatory factor 5, full length, phosphomimetic (IRF5, Homo sapiens, UniProt Q13568-2, residues 1-514, S451D/S453D/S456D/S462D)
# Method: protein-binding microarray
# Molecule type: double-stranded DNA, one strand shown
# Matrix: in vitro
# Concentration: 940 nM top
# Notes: 60-bp whole probe
# Added: salmon DNA 0.4 mg/ml
# Reference: random background probes
# Direction: higher = stronger binding
# All sequences stand within: GCCTAGCAC … GTCTTGATTCGCTTGACGCTGCTG
Strand,fitted relative affinity [z-score]
TTAGGAATGGGGTATCGGTTAGTGCTA,2.7
GACGATTCCAGTTGCGAGACGTGCTAG,0.227
GACGAACTGATTCTCGAGACGTGCTAG,0.684
TTAGGACTGGGGTATCGGTAAGTGCTA,1.85
AGCCGTCTCCACCTGGGCAAGTGCTAG,0.00655
GACGGTTCCGACTATCGGGACGTGCTA,0.746
TTAGGACTGGGTTTCGGTTGGTGCTAG,6.52
TTAGGTTTTGACTATCGGTTAGTGCTA,1.17
TTAGGGTTCGGTCTCGGTTAGTGCTAG,2.5
GACGGTATCGGGTATCGGGCCGTGCTA,5.34
GACGGTATCCTTATACTGACGTGCTAG,0.0623
GCTTTTTCCCCCCTCACGCAGTGCTAG,0.734
GACGGTTTGGGGACTGGGGACGTGCTA,0.501
TTAGGACGGGGGTTTCGGTTAGTGCTA,11.9
GACGATCTCAGTATCGAAACGTGCTAG,2.86

# Set 2
# Target: Histone acetyltransferase KAT6A, winged helix 1, GST fusion (KAT6A, Homo sapiens, UniProt Q92794, residues 1-85)
# Method: protein binding microarray
# Molecule type: double-stranded DNA, one strand shown
# Matrix: in vitro
# Concentration: not given
# Notes: 8-mer, flanks averaged, mean of 2 arrays, mostly near background
# Reference: not given
# Direction: higher = stronger binding
# Construct (chain): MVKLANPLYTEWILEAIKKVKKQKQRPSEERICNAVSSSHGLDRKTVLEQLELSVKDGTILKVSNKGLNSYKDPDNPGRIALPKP
Strand,E-score
GCGACCAC,0.304
ACCCAGGT,-0.0979
ATGCCTCC,0.0725
CGAAGGCG,0.259
GCAAGAAC,-0.0935
TATACTGA,-0.13
ACGCGGCA,0.406
CATTCATC,-0.21
ATCCTGCA,-0.292
AGCCAGTG,-0.167
CGATCCGC,0.246
AGCAGGAG,-0.0826
CCCAGGAC,-0.0435
AACAATCT,-0.117
GAAGTGGC,-0.2
TGCTCCAA,-0.313
CTATCACC,0.00766
AGCGAATA,-0.115
AAAATGTG,0.0379
GTGGTGAA,-0.0996
ACATTCTC,-0.0446
CAGACCAG,-0.0356
TACTCTGA,-0.0454

# Set 3
# Target: RNA binding protein fox-1 homolog 2, RRM domain, GST-SBP tag (RBFOX2, Homo sapiens, UniProt O43251-10, residues 100-194)
# Method: RNA Bind-n-Seq
# Molecule type: RNA
# Matrix: in vitro
# Concentration: 365 nM
# Notes: natural RNA segment, single round, ends assumed
# Reference: no-protein control
# Direction: higher = stronger binding
# All sequences stand within: GGGAGUUCUACAGUCCGACGAUC … UGGAAUUCUCGGGUGCCAA
# Target sequence (chain): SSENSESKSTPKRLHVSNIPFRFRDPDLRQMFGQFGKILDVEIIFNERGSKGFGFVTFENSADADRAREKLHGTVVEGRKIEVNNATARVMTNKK
Strand,RBNS enrichment (R)
UCUUCUGAGGGCCGGGCACGGUCACACGGCCACCCGCCCCGCGCACCCCACGCCCUGUUCACGCUCACCCAGUCACCUCCCCACAUCGCACACUGGGGCCCCGGGUUCAG,1.01
GAGGAGUUUGACAACUCCAGUGAGGACUAGGCUCCCUGUGCCUGGCAUCAGAGGGAAGGGAGGCUGGGGCUGCAGGGCAGUGAAACCCACGCAGCCUAGGCCAGAGCACU,0.294
AAAAAAAAAAAAUUACGUAGGAUUAAUACAGAAAUUUAAUCAUGUCUGAUUAAUUGCUCUAUUAAAAUAAGGGGCAUUUAAAGACCCAGCAUAACCAUUUGUAUAAUGAG,0.542
UGGCCACCUGCCAGACCCCCAAGGAGAGAGGCCAAGAGUGGCCCUGGCACAGUGUGUCUGCUAGCUGCUUCCACACCCCUUAGCCAUGUUAUCUGUAGAGUACCGGAUAG,0.348
CACCUUCUCAUCUCUACCUUUUAAGGGAUAUGGAAAGGUCUGGAGCUCUGUCUGACCCCACACUCUCCAUUUUCCCCAGCCAAGGCAGACAGCAGCACUAGCAGACGGUC,0.285
CCUAAAGAAACAAGCAAGAAAGUGAGGGCCAUCACUAGGGUUGGCUUUGGGGAGGGGAAAACUAAGGACUGCUUUUGCCAAAUGAUAUUUUUGAUAAUGUAAGGAAACAC,1.1
UUUUAAGUUAAGGGAAAAAGUAUAUUUUUGUUAAAACUUUCAUGAAAAAAUAAAAUAUAUCCUUGUCGAAUUCUGUAUCUAUGAUAACAAAUUCUUGUACUUUAAGAAAA,0.7
UUCACCUUACAUUCUGGAUGCAUUCAGAUCUCGGACGUCCUUAAGUGAAAUGAAUAUACAUGUCUAUGGACUUAAUAUCAUGCCCAGAUAUGAAGACCUCGUUCAACUUU,0.426
UAGGACUCUGGAGUAUGCAGACUUGGCCAUUCGUCCAUUGUGGCCUGCGGGUCGCACCCCAGGCAUACUGAAAGGCCAUACUCGUGGCUGGCUGCCUGCGGGCCUAAGCC,3.3
CCCGGUGCUGGGCCUGGCCGAGGGGCGGAGGCACAGCUGCUUCCAGCAGCCAGCAUUCAGUGGCCUUGUCACCAAGCUCCACACCUCCUCCUGGUGCUGGCUUUGGUGAC,0.319
CAAACCAAUCAAAUAUGGUCCUAAGAAUGCAGGGUGGGAUUAGAGCCAGUGUCUCUGCUUGAGAUGGAAUGGUGUUCCCAGCCUGCCUUGUCACUCCUCACCUGAGAGGA,0.217
UGUAUCUAGACUUCAAGGACAGGGUUUGUCUCACAGGAUUGUCACUUAGGAGAUGAAAGAAUAUUACCACAUGAGGAGGAGGGGCAGUUGCAACAGAACACUUUGGUCUU,0.686

# Set 4
# Target: Sal-like protein 4, full length isoform B (SALL4, Homo sapiens, UniProt Q9UJQ4-2, residues 1-616)
# Method: universal PBM
# Molecule type: double-stranded DNA, one strand shown
# Matrix: in vitro
# Concentration: not given
# Notes: 8-mer, flanks averaged, mean of replicates
# Direction: higher = stronger binding
# Residues (chain): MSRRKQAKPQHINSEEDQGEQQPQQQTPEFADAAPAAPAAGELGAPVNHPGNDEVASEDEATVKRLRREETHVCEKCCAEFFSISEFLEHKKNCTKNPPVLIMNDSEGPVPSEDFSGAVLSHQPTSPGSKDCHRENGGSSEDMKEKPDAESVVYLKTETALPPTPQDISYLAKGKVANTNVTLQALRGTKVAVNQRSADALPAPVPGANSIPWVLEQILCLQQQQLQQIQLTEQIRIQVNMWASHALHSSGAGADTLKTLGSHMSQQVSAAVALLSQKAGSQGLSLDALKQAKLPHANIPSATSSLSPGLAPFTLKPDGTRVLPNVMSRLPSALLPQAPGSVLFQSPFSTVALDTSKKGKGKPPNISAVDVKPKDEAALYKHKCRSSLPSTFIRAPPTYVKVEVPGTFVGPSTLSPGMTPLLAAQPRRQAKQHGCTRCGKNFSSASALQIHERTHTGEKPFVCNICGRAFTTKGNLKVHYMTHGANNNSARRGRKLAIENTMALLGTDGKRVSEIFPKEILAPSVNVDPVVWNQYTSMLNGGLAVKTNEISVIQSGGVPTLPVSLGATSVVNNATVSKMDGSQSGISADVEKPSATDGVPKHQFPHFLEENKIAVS
Strand,E-score
ATCTGTGG,-0.206
GGTTTTCA,0.166
CAGGTGCA,-0.13
GTTTCTAA,0.114
CTGTTGAC,-0.0503
CACCTACG,-0.169
ATTCCGCC,-0.144
ATAACTAC,0.374
GTTTTAAA,0.195
ACCTCTCA,-0.165
ACATTCCG,-0.0387
AATCTTAG,0.0536
AAATCCCC,-0.186
CGGCTGAA,-0.133
AATGATTA,0.296
ACTCTCCA,0.0103
ACAAGAAA,0.21
CACCACAC,-0.0416
CTATCAAA,0.105

# Set 5
# Target: CCNF, cyclin fold, Cln2 fusion (human)
# Method: yeast growth competition, sequencing
# Matrix: yeast
# Notes: strong parent motif
# Reference: not given
# Direction: higher = stronger binding
# Starting sequence: PKN2 docking peptide (human); VSAVRKLDFSDTM
Change,normalised enrichment score
VSAVRKDDFSDTM [L7D],-0.588
VSAARKLDFSDTM [V4A],7.26
VMAVRKLDFSDTM [S2M],7.28
VSAVRELDFSDTM [K6E],5.34
VSADRKLDFSDTM [V4D],2.29
VSAVRKLMFSDTM [D8M],8.35
VSAVRKLDFSQTM [D11Q],7.09
VSAVRKLDFIDTM [S10I],6.44
VSAVRKLDYSDTM [F9Y],5.54
VPAVRKLDFSDTM [S2P],6.98
VDAVRKLDFSDTM [S2D],6.42
VSAVRKLDDSDTM [F9D],-0.0476
VSAVRKLDFSYTM [D11Y],7.6
VSAVRKLGFSDTM [D8G],6.19
VSAVRKLDFSTTM [D11T],7.36
VSAVRKLDFSLTM [D11L],7.37

# Set 6
# Target: Protein max, full length (MAX, Homo sapiens, UniProt P61244-2, residues 1-151)
# Method: protein-binding microarray
# Molecule type: double-stranded DNA, one strand shown
# Matrix: in vitro
# Concentration: not given
# Notes: k-mer, scored over probes, only values ≥0.25
# Direction: higher = stronger binding
Strand,E-score
CGTGATTC,0.39
CTCATGCA,0.305
ATGCGACA,0.3
ACATCACG,0.271
AATGTGCC,0.251
ACATGCTA,0.387
GCATGCGC,0.42
ATGCAACG,0.272
AGGCGTGG,0.373
CAGGCGGA,0.263

# Repeated from above (set 4):
Strand,E-score
ATAACTAC,0.374
GTTTTAAA,0.195
ACCTCTCA,-0.165
ACATTCCG,-0.0387
AATCTTAG,0.0536
AAATCCCC,-0.186
CGGCTGAA,-0.133
